Published values of several laboratories.
Lines come from different studies, so protocols differ. Values joined by “and” are separate records of one study, mostly repeats; a detail may differ. ± gives the spread as reported.
UCHL1: Ubiquitin carboxyl-terminal hydrolase isozyme L1 (UCHL1, Homo sapiens, UniProt P09936)
Chain of UniProt P09936 (whole entry, looked up): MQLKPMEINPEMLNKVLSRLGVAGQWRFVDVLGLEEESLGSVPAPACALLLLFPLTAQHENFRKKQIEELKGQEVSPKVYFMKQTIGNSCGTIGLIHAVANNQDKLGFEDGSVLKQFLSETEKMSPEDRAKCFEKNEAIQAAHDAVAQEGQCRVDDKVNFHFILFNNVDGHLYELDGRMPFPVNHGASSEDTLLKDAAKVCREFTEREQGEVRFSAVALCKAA
Chain of UniProt Q07343 (whole entry, looked up): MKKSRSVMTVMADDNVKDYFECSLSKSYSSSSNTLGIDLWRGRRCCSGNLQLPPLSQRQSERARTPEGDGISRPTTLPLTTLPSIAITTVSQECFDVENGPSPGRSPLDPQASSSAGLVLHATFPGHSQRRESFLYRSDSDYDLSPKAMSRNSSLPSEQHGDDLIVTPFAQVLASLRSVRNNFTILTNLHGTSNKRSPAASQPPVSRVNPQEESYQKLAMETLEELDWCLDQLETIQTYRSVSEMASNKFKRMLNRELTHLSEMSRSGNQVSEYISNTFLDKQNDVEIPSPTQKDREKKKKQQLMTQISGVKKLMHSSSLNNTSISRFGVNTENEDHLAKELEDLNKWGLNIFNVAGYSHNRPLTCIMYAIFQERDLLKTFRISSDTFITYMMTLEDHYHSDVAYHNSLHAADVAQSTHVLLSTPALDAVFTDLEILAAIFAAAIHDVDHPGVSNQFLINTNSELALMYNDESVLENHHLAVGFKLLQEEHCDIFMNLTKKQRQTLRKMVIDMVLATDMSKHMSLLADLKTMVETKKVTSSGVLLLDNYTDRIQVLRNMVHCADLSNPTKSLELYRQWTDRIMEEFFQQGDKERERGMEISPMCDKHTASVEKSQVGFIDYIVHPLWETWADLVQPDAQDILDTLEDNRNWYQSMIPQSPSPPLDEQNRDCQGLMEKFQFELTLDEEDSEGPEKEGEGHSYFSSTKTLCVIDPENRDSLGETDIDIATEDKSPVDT

With Cc1nc(NCCNc2ccnc3cc(Cl)ccc23)nc(-c2ccccc2[N+](=O)[O-])c1C(=O)OC(C)C the EC50 was over 2000 nM (HIV-1; viral replication; CCRF-CEM, IIIB).
With Cc1cn([C@H]2C[C@H](N=[N+]=[N-])[C@@H](CO)O2)c(=O)[nH]c1=O the EC50 was 8 ± 0.2 nM (HIV-1; viral replication, reverse transcriptase; human PBMC, 92HT599 (CXCR4-tropic); 7 days).
COc1ccccc1NS(=O)(=O)c1ccc(N/N=C(\C)c2ccccc2Br)c([N+](=O)[O-])c1 gave an EC50 of 12000 nM (HIV-1; viral cytopathic effect, MTT; MT4, IIIB).
For N#C/C=C/c1ccc2c(S(=O)(=O)n3nc(Nc4ccc(C#N)c(Cl)c4)nc3N)cccc2c1, the EC50 was 1.78 ± 0.88 nM (HIV-1; viral replication; TZM-bl, IIIB wild type; 48 h).
The EC50 of CCN(CC)c1ccc(/C=C2\CCC(/C=N/N=C/c3cccnc3)=C2N2CCOCC2)cc1 is reported as over 20000 nM (HIV-1; viral cytopathic effect, MTT; MT4, IIIB).
Cc1c(O)cccc1C(=O)N[C@@H](CSc1ccccc1)[C@H](O)CN1C[C@H]2CCCC[C@H]2C[C@H]1C(=O)NC(C)(C)C has an EC50 of 20 nM (HIV-1; infectivity of progeny virus; HEK293FT, NL4-3).
With COc1ccc(OC)c(/C=N/NC(=O)c2n[nH]c3c2CCC3)c1 the EC50 was over 40000 nM (HIV-1; viral cytopathic effect, MTT; MT4, IIIB).
The EC50 of CCCC(=O)OCSc1ccccc1C(=O)NCCn1cc(C(=O)NCc2ccccc2)c(=O)c2cc3c(cc21)OCO3 is reported as 5130 ± 160 nM (HIV-1; virus-induced cytopathic effect, inhibitor, XTT; CEM-SS, RF; 6 days).
With Cc1cc(/C=C/C#N)cc(C)c1Nc1ccnc(Nc2ccc(C#N)cc2)n1 the EC50 was 2.5 ± 0.7 nM (HIV-1; viral replication, MTT; MT4, IIIB wild type).
The IC50 of Cc1nc(-c2ccc(C(F)(F)F)c(F)c2)nc(Nc2ccc(CC(=O)O)cc2)c1C is reported as 120000 ± 34100 nM (3',5'-cyclic-AMP phosphodiesterase 4B (PDE4B, Homo sapiens, UniProt Q07343); enzyme activity, inhibitor).
CCc1cc(F)c(Cc2cnc(Nc3ccc(C#N)c(Cl)c3)o2)c(F)c1 has an EC50 of 1.3 nM (HIV-1; protection from cytopathicity; MT2 cells, IIIB wild type).
For Nc1ccn([C@@H]2CS[C@H](CO)O2)c(=O)n1, the EC50 was 690 ± 350 nM (HIV-1; viral replication, MTT; MT4, IIIB wild type).
CCCCNC(=O)C(C#N)=Cc1cc(F)ccc1F gave a labelling of 9.7% (UCHL1; covalent, intact protein LC-MS; 12.5 µM).
Cc1ccc(N/N=C2\Sc3ccccc3C2=O)cc1 gave an EC50 of over 100000 nM (HIV-1; viral cytopathic effect, MTT; MT4, IIIB).
CCCC(=O)OCSc1ccccc1C(=O)NCCn1ccc(=O)c2cc(OC)ccc21 gave an EC50 of 690 ± 960 nM (HIV-1; virus-induced cytopathic effect, inhibitor, XTT; CEM-SS, RF; 6 days).
With COc1ccc(Cc2cnc(NC(=O)CCl)s2)cc1 the labelling was 76.7% (UCHL1; covalent, intact protein LC-MS; 12.5 µM).
For CCCC(=O)OCSc1ccccc1C(=O)NCCn1cc(C(=O)NCc2ccncc2)c(=O)c2cc3c(cc21)OCO3, the EC50 was 380 ± 490 nM (HIV-1; virus-induced cytopathic effect, inhibitor, XTT; CEM-SS, RF; 6 days).
The EC50 of CCOc1cccc(/C=N/NC(=O)c2n[nH]c3c2CCC3)c1O is reported as over 4000 nM (HIV-1; viral cytopathic effect, MTT; MT4, IIIB).
For CCCC(=O)OCSc1ccccc1C(=O)NCCn1cc(C(=O)NCc2cccc(C)n2)c(=O)c2cc3c(cc21)OC(F)(F)O3, the EC50 was 4260 ± 860 nM (HIV-1; viral replication; human PBMC, 92RW009).
For Cn1c(Cn2ccc(C(F)(F)F)c(Oc3cc(Cl)cc(C#N)c3)c2=O)n[nH]c1=O, the EC50 was 2.3 ± 1 nM (HIV-1; viral replication, MTT; MT4, IIIB wild type).
CCCC(=O)OCSc1ccccc1C(=O)NCCn1cc(C(=O)NCc2ccccn2)c(=O)c2cc3c(cc21)OCO3 gave an EC50 of 540 ± 110 nM (HIV-1; virus-induced cytopathic effect, inhibitor, XTT; CEM-SS, RF; 6 days).
The EC50 of COc1ccccc1N1CCN(/N=C/c2ccc(Cl)c([N+](=O)[O-])c2)CC1 is reported as over 100000 nM (HIV-1; viral cytopathic effect, MTT; MT4, IIIB).
CN1CCC(c2c(O)cc(O)c3c(=O)cc(-c4ccccc4)oc23)C(O)C1 (stereo not shown) gave an EC50 of < 10 nM and 7.4 nM (HIV-1; viral replication, single-round infectivity; HeLa-CD4-LTR-β-gal, LAI).
For CC/N=c1/scc(-c2ccc(Br)cc2)n1/N=C/c1ccc(O)c(O)c1O, the EC50 was over 35000 nM (HIV-1; viral cytopathic effect, MTT; MT4, IIIB).
For CC(=O)c1ccc2c(c1)N(CCCN(C)C)c1ccccc1S2, the EC50 was over 16000 nM (HIV-1; cytopathicity, XTT; CEM-SS, RF; 6 days).

Some of these lines once more:
With COc1ccc(Cc2cnc(NC(=O)CCl)s2)cc1 the labelling was 76.7% (UCHL1; covalent, intact protein LC-MS; 12.5 µM).
For CCCC(=O)OCSc1ccccc1C(=O)NCCn1cc(C(=O)NCc2cccc(C)n2)c(=O)c2cc3c(cc21)OC(F)(F)O3, the EC50 was 4260 ± 860 nM (HIV-1; viral replication; human PBMC, 92RW009).
The EC50 of CCOc1cccc(/C=N/NC(=O)c2n[nH]c3c2CCC3)c1O is reported as over 4000 nM (HIV-1; viral cytopathic effect, MTT; MT4, IIIB).
For CCCC(=O)OCSc1ccccc1C(=O)NCCn1cc(C(=O)NCc2ccncc2)c(=O)c2cc3c(cc21)OCO3, the EC50 was 380 ± 490 nM (HIV-1; virus-induced cytopathic effect, inhibitor, XTT; CEM-SS, RF; 6 days).
